# Assay results collected from several papers.
# Compare with care: the assays were run in different laboratories. Values joined by “and” are separate records of one study, mostly repeats; a detail may differ. Numbers after ± are the reported error.
SMILES,assay,system,conditions,scale,quantity,result
CC(=O)NCCCC[C@@H]1NC(=O)[C@H](Cc2c[nH]c3c(C)cccc23)NC(=O)[C@H]([C@@H](C)O)NC(=O)[C@H](CC(N)=O)NC(=O)[C@@H](NC(C)=O)C(C)(C)SSC(C)(C)[C@@H](C(=O)N[C@@H](Cc2ccc(OCCN)cc2)C(=O)N[C@@H](Cc2ccc3ccccc3c2)C(=O)NC2(C(=O)N[C@@H](CCC(=O)O)C(=O)N[C@@H](CC(N)=O)C(=O)N[C@@H](Cc3cccnc3)C(=O)N(C)CC(N)=O)CCOCC2)NC1=O,equilibrium dialysis,"cynomolgus monkey, plasma",1 µM,,plasma protein binding,50.7 ± 0.2%
O=C1NC2(CC2)COc2ncc(F)cc2[C@H]2COCCN2c2ccn3ncc1c3n2,,"Sprague-Dawley rat, female, blood","oral, 2.5 mg/kg/day, 4 weeks, end of treatment, subacute toxicity",,haemoglobin,132 ± 13 g/L
CC[C@H](C)[C@H](NC(=O)[C@H](CCCCN)NC(=O)CNC(=O)[C@H](CC(C)C)NC(=O)[C@H](Cc1ccccc1)NC(=O)[C@H](CCCCN)NC(=O)[C@H](CO)NC(=O)[C@H](Cc1ccccc1)NC(=O)[C@H](Cc1c[nH]c2ccccc12)NC(=O)[C@H](CCC(N)=O)NC(=O)[C@@H](NC(=O)[C@H](Cc1ccccc1)NC(=O)CCCCCNC(=O)CN1CCN(CC(=O)O)CCN(CC(=O)O)CCN(CC(=O)O)CC1)C(C)C)C(=O)N[C@@H](CCC(=O)O)C(=O)N1CCC[C@H]1C(=O)N[C@@H](CC(=O)O)C(=O)N[C@H](C(=O)N[C@@H](CO)C(=O)N[C@@H](CCC(N)=O)C(=O)N[C@H](C(=O)N[C@@H](CCC(N)=O)C(=O)N[C@@H](CC(=O)O)C(=O)N1CCC[C@H]1C(=O)N[C@@H](CC(N)=O)C(=O)N[C@@H](CC(=O)O)C(=O)N[C@@H](CCC(N)=O)C(=O)N[C@@H](Cc1ccc(O)cc1)C(=O)N[C@@H](CCC(=O)O)C(=O)N1CCC[C@H]1C(=O)N[C@@H](Cc1ccccc1)C(=O)O)C(C)C)C(C)C [copper-64 labelled],dynamic PET,"mouse both sexes, CT26 tumour, checkpoint inhibitor-treated, tumour","intravenous, 100 µCi/mouse, 750 s",,SUVmean,3.21 SUV
CC(C)[C@H](NC(=O)[C@@H](NC(=O)[C@H](CCCNC(=N)N)NC(=O)[C@H](CCCNC(=N)N)NC(=O)[C@H](CCCNC(=N)N)NC(=O)[C@H](CCC(N)=O)NC(=O)[C@H](CCCNC(=N)N)NC(=O)[C@H](CCCNC(=N)N)NC(=O)[C@H](CCCCN)NC(=O)[C@H](CCCCN)NC(=O)[C@H](CCCNC(=N)N)NC(=O)CN)[C@@H](C)O)C(=O)N[C@H](C(=O)N[C@@H](CO)C(=O)N1CCC[C@H]1C(=O)O)[C@@H](C)O,,"ICR mouse, female, left kidney","intranasal, 10 mg/kg daily, 4 weeks",,kidney weight,0.226 ± 0.011 g
CC[C@H](C)[C@H](NC(=O)[C@H](CCCNC(=N)N)NC(=O)[C@H](CCCCN)NC(=O)[C@H](Cc1ccc(O)cc1)NC(=O)[C@H](CC(=O)O)NC(=O)[C@H](C)NC(=O)CNC(=O)CCOCCOCCOCCNC(=O)CN1CCN(CC(=O)O)CCN(CC(=O)O)CCN(CC(=O)O)CC1)C(=O)N[C@H](C(=O)N[C@@H](CC(C)C)C(=O)N[C@@H](CCCCN)C(=O)N[C@H](C(=O)N[C@@H](CC(N)=O)C(N)=O)C(C)C)[C@@H](C)O [copper-64 labelled],ex vivo gamma counting,"C57BL/6J male mice, B16-F10 tumour, lung","intravenous, 1.85 MBq, 20 min",,tissue uptake,1.95 ± 0.963 %ID/g
CC(=O)N[C@H](C(=O)N[C@@H](CCCC(=O)OC(C)(C)C)C(=O)N[C@@H](CCC1CCCCC1)C(=O)N[C@@H](CC(=O)O)C(=O)COC(=O)c1c(C)cccc1C)C(C)(C)C,,"mouse, whole blood","intraperitoneal, dose not given, 1 h",,concentration,742 µM
CCN(CCCCOc1ccc(CCC(=O)N2CCC(Cc3ccccc3)CC2)cc1OC)Cc1ccccc1,,"Sprague-Dawley rats, both sexes, faeces","oral gavage, 25 mg/kg, 0 to 48 h",baseline: dose,excretion rate,1.4 ± 0.0166%
CC(C)C[C@H](NC(=O)[C@H](CCCNC(=N)N)NC(=O)[C@H](Cc1ccccc1)NC(=O)[C@H](Cc1ccccc1)NC(=O)[C@@H](N)[C@@H](C)O)C(=O)N[C@@H](Cc1ccccc1)C(=O)N[C@@H](CC(N)=O)C(=O)N[C@@H](CCCNC(=N)N)C(=O)N[C@@H](C)C(=O)N[C@@H](CCCCN)C(=O)N[C@@H](CCCNC(=N)N)C(=O)N[C@@H](Cc1c[nH]cn1)C(=O)N[C@@H](Cc1c[nH]cn1)C(=O)NCC(=O)N[C@@H](Cc1ccc(O)cc1)C(=O)N[C@@H](CCCCN)C(=O)N[C@@H](CCCNC(=N)N)C(=O)N[C@@H](CCCCN)C(=O)N[C@@H](Cc1ccccc1)C(=O)N[C@@H](Cc1c[nH]cn1)C(=O)O,HPLC-UV,human saliva,"4 h, 37 °C, added: initial 1 mg/mL",,peptide concentration,0.358 mg/mL
CN1Cc2cc(Cl)ccc2-n2c(nnc2C2CCN(c3cccc([18F])n3)CC2)C1,PET two-tissue compartment model,"rhesus monkey, amygdala","intravenous, dose not given, 90 min scan, baseline scan",,total volume of distribution,1.21 ± 0.39 mL/cm3
CN(C)C(=O)c1cncc(-c2cnc3[nH]cc(-c4cc(OS(=O)(=O)F)ccc4C(F)(F)F)c3c2)c1,HPLC,acetonitrile/water/DMSO,"50 µM, 37 °C, DIPEA 20 eq, added: N-α-acetyl-lysine",,reactivity half-life,> 24 h
CSCC[C@H](NC(=O)CNC(=O)[C@H](CCCCN)NC(=O)[C@H](CC(C)C)NC(=O)[C@@H]1CCCN1C(=O)[C@H](CO)NC(=O)[C@H](Cc1c[nH]cn1)NC(=O)[C@H](Cc1c[nH]c2ccccc12)NC(=O)[C@H](CCCNC(=N)N)NC(=O)[C@H](CC(C)C)NC(=O)[C@H](CCCNC(=N)N)NC(=O)[C@H](Cc1c[nH]c2ccccc12)NC(=O)[C@H](CS)NC(=O)CCCCCNC(=O)CN1CCN(CC(=O)O)CCN(CC(=O)O)CCN(CC(=O)O)CC1)C(=O)O [copper-64 labelled],ex vivo biodistribution,"male C57BL/6J mice, spleen","intravenous, 1.85 MBq, 0.5 h, B16-F10 tumour-bearing",,tissue uptake,2.39 %ID/g
CCCCCCCCCCCCCCCC(=O)N[C@@H](CCC(=O)NCCOCCOCCC(=O)NCCOCCOCCC(=O)NCCCC[C@H](NC(=O)[C@H](CC(=O)O)NC(=O)[C@H](CC(C)C)NC(=O)[C@H](Cc1ccc(O)cc1)NC(=O)[C@H](CCCCN)NC(=O)[C@H](CO)NC(=O)[C@H](Cc1ccc(O)cc1)NC(=O)[C@H](CC(=O)O)NC(=O)[C@H](CO)NC(=O)[C@@H](NC(=O)[C@H](Cc1ccccc1)NC(=O)[C@@H](NC(=O)CNC(=O)[C@H](CCC(N)=O)NC(=O)[C@@H](CO)NC(=O)[C@@H](N)Cc1c[nH]cn1)[C@@H](C)O)[C@@H](C)O)C(=O)N[C@@H](CCCNC(=N)N)C(=O)N[C@@H](CCCNC(=N)N)C(=O)N[C@@H](C)C(=O)N[C@@H](CCC(N)=O)C(=O)N[C@@H](CC(=O)O)C(=O)N[C@@H](Cc1ccccc1)C(=O)N[C@H](C(=O)N[C@@H](CCC(N)=O)C(=O)N[C@@H](Cc1c[nH]c2ccccc12)C(=O)N[C@@H](CC(C)C)C(=O)N[C@@H](CC(C)C)C(=O)N[C@@H](CC(N)=O)C(=O)N[C@H](C(=O)NCC(=O)NCC(=O)N1CCC[C@H]1C(=O)N[C@@H](CO)C(=O)N[C@@H](CO)C(=O)NCC(=O)N[C@@H](C)C(=O)N1CCC[C@H]1C(=O)N1CCC[C@H]1C(=O)N1CCC[C@H]1C(=O)N[C@@H](CO)C(N)=O)[C@@H](C)O)C(C)C)C(=O)O,,"rhesus monkey, male","subcutaneous, 20 µg/kg once daily, 28 days",,urea,5.82 ± 0.82 mmol/L
O=C(c1cc(Cc2n[nH]c(=O)c3ccccc23)ccc1F)N1CC(CNC2CC2)C1,,female Wistar Han rat,"oral, 60 mg/kg, day 1",,Cmax,14400 ng/mL
CSCC[C@H](N)C(=O)N[C@@H](C)C(=O)N[C@@H](Cc1c[nH]c2ccccc12)C(=O)N[C@@H](Cc1c[nH]cn1)C(=O)N[C@@H](CC(=O)O)C(=O)N[C@@H](CC(=O)O)C(=O)N[C@@H](CCC(=O)O)C(=O)N[C@@H](CCC(=O)O)C(=O)N[C@@H](Cc1ccccc1)C(=O)N[C@@H](C)C(=O)N[C@@H](CCCNC(=N)N)C(=O)N[C@@H](CCCNC(=N)N)C(=O)N[C@@H](CCCNC(=N)N)C(=O)N[C@@H](CCCNC(=N)N)C(=O)NCCCCCC(=O)NCCCCC(NC(=O)CCCCCNC(=O)[C@H](CCCNC(=N)N)NC(=O)[C@H](CCCNC(=N)N)NC(=O)[C@H](CCCNC(=N)N)NC(=O)[C@H](CCCNC(=N)N)NC(=O)[C@H](C)NC(=O)[C@H](Cc1ccccc1)NC(=O)[C@H](CCC(=O)O)NC(=O)[C@H](CCC(=O)O)NC(=O)[C@H](CC(=O)O)NC(=O)[C@H](CC(=O)O)NC(=O)[C@H](Cc1c[nH]cn1)NC(=O)[C@H](Cc1c[nH]c2ccccc12)NC(=O)[C@H](C)NC(=O)[C@@H](N)CCSC)C(=O)NCCCCC(NC(=O)C(CCCCNC(=O)CCCCCNC(=O)[C@H](CCCNC(=N)N)NC(=O)[C@H](CCCNC(=N)N)NC(=O)[C@H](CCCNC(=N)N)NC(=O)[C@H](CCCNC(=N)N)NC(=O)[C@H](C)NC(=O)[C@H](Cc1ccccc1)NC(=O)[C@H](CCC(=O)O)NC(=O)[C@H](CCC(=O)O)NC(=O)[C@H](CC(=O)O)NC(=O)[C@H](CC(=O)O)NC(=O)[C@H](Cc1c[nH]cn1)NC(=O)[C@H](Cc1c[nH]c2ccccc12)NC(=O)[C@H](C)NC(=O)[C@@H](N)CCSC)NC(=O)CCCCCNC(=O)[C@H](CCCNC(=N)N)NC(=O)[C@H](CCCNC(=N)N)NC(=O)[C@H](CCCNC(=N)N)NC(=O)[C@H](CCCNC(=N)N)NC(=O)[C@H](C)NC(=O)[C@H](Cc1ccccc1)NC(=O)[C@H](CCC(=O)O)NC(=O)[C@H](CCC(=O)O)NC(=O)[C@H](CC(=O)O)NC(=O)[C@H](CC(=O)O)NC(=O)[C@H](Cc1c[nH]cn1)NC(=O)[C@H](Cc1c[nH]c2ccccc12)NC(=O)[C@H](C)NC(=O)[C@@H](N)CCSC)C(N)=O (some centres unmarked),,"C57BL/6 mouse female, skull","dose not given, 6 h",baseline: total,tissue distribution,11.9% and 41.1% and 25.8%
COc1cnc2cccc(N3CCc4c(cc(Cn5ccnc5)cc4-c4cn(C)nc4C(F)(F)F)C3=O)c2c1,,"BALB/c nude mice, MV4-11 xenograft","intraperitoneal, 75 mg/kg, day 35",,body weight,22.7 g and 23.2 g and 22.1 g and 23 g
CC(C)C[C@@H](NC(=O)[C@@H](CCCNC(=N)N)NC(=O)[C@@H](Cc1c[nH]cn1)NC(=O)[C@@H](Cc1c[nH]c2ccccc12)NC(=O)[C@@H](Cc1c[nH]cn1)NC(=O)[C@@H](Cc1ccccc1)NC(=O)[C@H](NC(=O)[C@@H](Cc1ccc(O)cc1)NC(=O)CNC(=O)CNC(=O)CCOCCOCCOCCNC(=O)CN1CCN(CC(=O)O)CCN(CC(=O)O)CC1)[C@H](C)O)C(=O)N[C@H](CC(N)=O)C(=O)N1CCC[C@@H]1C(=O)O [gallium-68 labelled],,"C57BL/6 mice, male","intravenous, 1.85 MBq, 120 min",baseline: tumour over blood,tissue ratio,5.69 ± 1.27
CC(C)C[C@H](NC(=O)[C@H](Cc1ccc(O)cc1)NC(=O)[C@H](Cc1c[nH]cn1)NC(=O)[C@H](CC(=O)O)NC(=O)[C@@H](NC(=O)[C@H](C)NC(=O)[C@H](CC(C)C)NC(=O)CNC(=O)CNC(=O)[C@@H](NC(=O)[C@@H](NC(=O)[C@H](CCCCN)NC(=O)CNC(=O)[C@@H](NC(=O)[C@H](CCCCN)NC(=O)[C@H](CCCCN)NC(=O)[C@H](C)NC(=O)[C@H](CCCNC(=N)N)NC(=O)[C@H](CC(N)=O)NC(=O)[C@H](Cc1ccccc1)NC(=O)[C@H](Cc1c[nH]c2ccccc12)NC(=O)[C@H](CCCCN)NC(=O)[C@H](CCCCN)NC(=O)[C@H](Cc1c[nH]c2ccccc12)NC(=O)CN)C(C)C)[C@@H](C)O)C(C)C)C(C)C)C(N)=O,,"zebrafish embryos 28 hpf, E3 medium",1 h,,acute toxic concentration,25 µM

# A few entries again:
SMILES,assay,system,conditions,scale,quantity,result
CSCC[C@H](NC(=O)CNC(=O)[C@H](CCCCN)NC(=O)[C@H](CC(C)C)NC(=O)[C@@H]1CCCN1C(=O)[C@H](CO)NC(=O)[C@H](Cc1c[nH]cn1)NC(=O)[C@H](Cc1c[nH]c2ccccc12)NC(=O)[C@H](CCCNC(=N)N)NC(=O)[C@H](CC(C)C)NC(=O)[C@H](CCCNC(=N)N)NC(=O)[C@H](Cc1c[nH]c2ccccc12)NC(=O)[C@H](CS)NC(=O)CCCCCNC(=O)CN1CCN(CC(=O)O)CCN(CC(=O)O)CCN(CC(=O)O)CC1)C(=O)O [copper-64 labelled],ex vivo biodistribution,"male C57BL/6J mice, spleen","intravenous, 1.85 MBq, 0.5 h, B16-F10 tumour-bearing",,tissue uptake,2.39 %ID/g
